# Results pooled from the literature.
# Target: Prostaglandin G/H synthase 2 (PTGS2, Homo sapiens, UniProt P35354)
# Sequence of UniProt P35354 (whole entry, looked up): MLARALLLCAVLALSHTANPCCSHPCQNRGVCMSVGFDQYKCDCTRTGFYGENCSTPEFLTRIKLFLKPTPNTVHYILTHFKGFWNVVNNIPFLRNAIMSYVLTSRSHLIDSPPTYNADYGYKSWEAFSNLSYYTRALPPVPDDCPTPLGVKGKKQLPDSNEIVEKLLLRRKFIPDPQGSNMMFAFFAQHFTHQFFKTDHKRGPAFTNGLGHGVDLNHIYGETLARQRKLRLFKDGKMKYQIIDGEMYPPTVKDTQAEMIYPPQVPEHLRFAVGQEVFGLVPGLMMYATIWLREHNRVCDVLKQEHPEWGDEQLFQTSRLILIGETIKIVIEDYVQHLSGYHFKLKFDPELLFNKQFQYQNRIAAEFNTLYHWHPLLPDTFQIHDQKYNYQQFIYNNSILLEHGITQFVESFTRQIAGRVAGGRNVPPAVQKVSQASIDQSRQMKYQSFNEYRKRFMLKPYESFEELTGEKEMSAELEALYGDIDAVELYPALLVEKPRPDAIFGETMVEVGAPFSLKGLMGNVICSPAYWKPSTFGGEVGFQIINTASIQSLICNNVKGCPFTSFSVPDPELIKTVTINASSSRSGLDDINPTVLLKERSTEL
# Read-out: enzyme activity
# Mode: inhibitor
SMILES,test,IC50
Fc1cc(Cl)c(Nc2ccccc2Cc2nnn[nH]2)c(Cl)c1,fluorescence,> 100 µM
NS(=O)(=O)c1ccc(-n2cc(CNc3ccccc3Cl)c(-c3ccc(OCc4ccccc4)cc3)n2)cc1,absorbance,2.51 µM
COc1c(OC2OC(CO)C(O)C(O)C2O)cc2c(=O)oc3c4c(cc5c(=O)oc1c2c35)OCO4 (stereo not shown),fluorescence,170 µM
FC(F)(F)Oc1cccc(/N=c2\oc3ccccc3cc2-c2ccccc2)c1,,0.0113 µM
COc1cc2c(=O)oc3c(OC)c(O)cc4c(=O)oc(c1O)c2c34,fluorescence,34.7 µM
c1ccc(-c2cc3ccccc3o/c2=N\c2cccnc2)cc1,,0.0096 µM
Cc1ccc(NCc2cn(-c3ccc(S(N)(=O)=O)cc3)nc2-c2ccc(OCc3ccccc3)cc2)cc1,absorbance,1.79 µM
O=[N+]([O-])c1ccc(/N=c2\oc3ccccc3cc2-c2ccccc2)cc1,,0.0131 µM
COc1cc(C2OC(c3ccc(O)c(OC)c3)C(C)C2C)ccc1O (stereo not shown),fluorescence,157 µM
O=C1CCN(Cc2ccccc2)CC1C(C[N+](=O)[O-])c1ccccc1 (stereo not shown),,5.79 µM
O=C(OCC1=C[C@@H](O)[C@H](O)[C@@H](OC(=O)c2ccccc2)[C@@H]1O)c1ccccc1,fluorescence,175 µM
c1ccc(-c2cc3ccccc3o/c2=N\c2ccc3ccccc3c2)cc1,,0.0162 µM
NS(=O)(=O)Cc1ccccc1Nc1c(Cl)cccc1Cl,fluorescence,> 100 µM
N#C/C=C1/C=CC(O)CC1OC1OC(CO)C(O)C(O)C1O (stereo not shown),"ELISA, measured: PGE2",> 70 µM
NS(=O)(=O)c1ccc(-n2cc(CNc3ccc(Cl)cc3)c(-c3ccc(OCc4ccccc4)cc3)n2)cc1,absorbance,2.99 µM
Clc1ccc(/N=c2\oc3ccccc3cc2-c2ccccc2)cc1,,0.0085 µM
Fc1ccc(NCc2cn(-c3ccccc3)nc2-c2ccc(OCc3ccccc3)cc2)cc1,absorbance,4.12 µM
O=C(c1ccncc1)N1N=C2/C(=C/c3ccc(Br)cc3)CCCC2C1c1ccc(Br)cc1 (stereo not shown),,0.102 µM
Clc1ccccc1NCc1cn(-c2ccccc2)nc1-c1ccc(OCc2ccccc2)cc1,absorbance,5.03 µM
Brc1ccc(/N=c2\oc3ccccc3cc2-c2ccccc2)cc1,,0.0124 µM
Brc1ccc(NCc2cn(-c3ccccc3)nc2-c2ccc(OCc3ccccc3)cc2)cc1,absorbance,9.63 µM
O=C(O)C(F)(F)c1ccccc1Nc1c(Cl)cccc1Cl,fluorescence,23 µM
